Measured values from different studies.
A part holds a random share of what one study measured. Substitutions count along the parent as printed.

Sample 1
Target: ABI1, truncated, D143A, DHFR fusion (Arabidopsis thaliana)
Method: DHFR PCA, deep sequencing
Sample: yeast
Notes: methotrexate growth selection, single substitutions
Together with: (+)-ABA 4.8 µM
Reference: wild-type fitted maximum
Reading: higher = stronger binding
Measurement: relative binding score
Parent: PYL1, truncated, DHFR fusion (Arabidopsis thaliana); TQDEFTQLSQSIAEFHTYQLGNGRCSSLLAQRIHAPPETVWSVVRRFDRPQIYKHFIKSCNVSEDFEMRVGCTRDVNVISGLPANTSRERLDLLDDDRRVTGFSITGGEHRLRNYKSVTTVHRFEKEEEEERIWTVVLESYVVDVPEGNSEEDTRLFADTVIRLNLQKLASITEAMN; partner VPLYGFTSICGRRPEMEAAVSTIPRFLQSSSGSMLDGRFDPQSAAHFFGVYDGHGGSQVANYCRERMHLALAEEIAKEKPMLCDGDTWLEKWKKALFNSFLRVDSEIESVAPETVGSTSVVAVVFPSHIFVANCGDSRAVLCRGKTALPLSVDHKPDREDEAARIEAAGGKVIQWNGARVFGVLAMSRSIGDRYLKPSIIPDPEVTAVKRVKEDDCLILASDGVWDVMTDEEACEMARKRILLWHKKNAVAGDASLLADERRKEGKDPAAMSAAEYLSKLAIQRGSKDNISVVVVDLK
E130T: 79.5%
N114H: 39.4%
E131Q: 80.3%
R45K: 37.9%
G107Y: 4.06%
L112G: -9.34%
I105D: -10.4%
D75T: 92.5%
V143Q: -11.8%
S80T: 60.9%
R88F: 65.8%
I33H: 18.9%
D48N: 23.9%
Q167P: -2.42%
I12G: -2.59%
H16T: -4.87%
A84V: 17.5%
C60T: 49.5%
I57P: 12.8%
L112A: -10.4%
E128V: 61%
Y115A: -2.52%
G21Q: 75.4%
W41P: -4.25%
T17Q: 47.5%

Sample 2
Target: CCNA2, cyclin fold, Cln2 fusion (human)
Method: yeast growth competition, sequencing
Sample: yeast
Notes: strong parent motif
Reference: not given
Reading: higher = stronger binding
Measurement: normalised enrichment score
Parent: PKN2 docking peptide (human); VSAVRKLDFSDTM; partner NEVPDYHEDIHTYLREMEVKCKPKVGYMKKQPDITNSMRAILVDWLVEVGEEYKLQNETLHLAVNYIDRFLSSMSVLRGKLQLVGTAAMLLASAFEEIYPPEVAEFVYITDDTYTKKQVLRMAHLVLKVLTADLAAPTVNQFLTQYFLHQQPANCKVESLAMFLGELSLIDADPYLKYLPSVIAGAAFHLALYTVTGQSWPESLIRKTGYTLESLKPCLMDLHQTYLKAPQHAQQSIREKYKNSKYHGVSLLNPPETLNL
R5T: 1.78
R5A: 1.88
D8W: 4.37
L7E: -0.169
S10K: 4.56
D11I: 4.92
A3Y: 4.15
A3W: 3.95
F9R: 0.811
D11F: 4.81
D8K: 4.59
A3D: -0.0795
D8H: 4.8
T12L: 5.48
S2D: 4.11
F9L: 1.94
S2R: 5.88
T12H: 5.29
F9D: -0.411
K6R: 5.62
S2V: 4.55
S2F: 4.35
S2P: 4.87
T12V: 4.72
F9Q: -0.365

Sample 3
Target: RNA binding protein fox-1 homolog 2, RRM domain, GST-SBP tag (RBFOX2, Homo sapiens, UniProt O43251-10, residues 100-194)
Method: RNA Bind-n-Seq
Molecule type: RNA
Sample: in vitro
Concentration: 365 nM
Notes: natural RNA segment, single round, ends assumed
Reference: no-protein control
Reading: higher = stronger binding
Measurement: RBNS enrichment (R)
Constant ends, left off below: GGGAGUUCUACAGUCCGACGAUC … UGGAAUUCUCGGGUGCCAA
Residues (chain): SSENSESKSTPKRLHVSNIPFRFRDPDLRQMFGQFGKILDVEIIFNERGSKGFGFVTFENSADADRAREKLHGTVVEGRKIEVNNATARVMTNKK
UCAGGCCAGUGCACCCCUGGGCAGAGCCCCUUAAAGCUGCUGUCACUAGAUGCCCAUGGUCCAGGGCCUGGUGGGCGUGAGAGGAUAGGUGGCAGGGCAGAAACUGGGCA: 0.474
GGAUCACGAGCCCCUACUUCCCAAAGAAUAAAUGGGCUUAGUGAUCAAGGUUCUUCAAGGGGUCUUUCUCCCUCUGAGAUAUUCAAGGCAAAUGUCUGGAUGUCGCAUUU: 0.227
AGGUAGAGACAGGAAGAUGAGAAGUGCAAAGUAGUCUCGGCUAGGUAGUGUCAGGACUAUCCUGUGCUCUAUGACAUUCUAUCUCUAAAAAUGAAGCAACACUUUUUCUG: 0.714
GGUCUCAGGCAGCACCACACUGGGUGCGUCUCCAGUCAUCUGUAAGAGCUUGCUCCAGAUUCUGAUGCAUACGGCUAUAUUGGUUUAUGUAGUCAGUUGCAUUCAUUAAA: 0.349
UCUUUGAGGGCAUUUAACUACAGGGGAGCAGUGGACUGAGGCUUGGCUUGAAUUAGACCACAAAGCUGGCUGUAUAUGGGAGAGUCCUUUGUUGCUUCCUUCCCUGGAGA: 0.679
GUUCCCUUUAACUGUGCCUCAGUGUGGGUUAGGGAACAAUUUUGUUAUUGUAUUAAGUUUAUUCAGUUAAUUCACUUGAGGAACUAACCAGUUUUUACUUUCUGUCUAGA: 0.326
AACACAUGUUUUUAUACAAAAUAAGAACGAGGAUUUUAAUUUUUUUUAGUAUUUAUUUAUGUACUUUUAUUUUACACAGAAACACUGCCUUUUUAUUUAUAUGUACUGUU: 1.45
CAGACUCUGCGCUUUAUCUGUCUAUGGUGAAGGAUAGGGCGCAAUCACUUUAAUUGUAAUGAUAGAUAAAUAAGACAGGACAAACUACAGUUUGUCUCAGAGGAAUCCAA: 0.465
ACAGGCGUGUGCCAGCGCGCCUGGCUAAUUUUAAAAUUUUUUUGUAGAGACAGAGUCUCCCUCUGUUGCCCAGGCUGGUCUGGAACUCCUAGCUUCAAAUGAUCCUCUCA: 0.424
UCUCCACUUCUUCUCAUGUGACCUCACAGUGUUGCUACUGUUCCUAAUAAAGUUUUAAGUUAUUAGACCCUCAAGGCAGCUUCUCUCUUCCUUUGGACGGCUGGACAGGG: 0.725
AAGAGAUAUAAACUCUAGAGUGAGUCUAUUGGGAAUCAGCAGAUUAUACAUACCUGGGGCAUCUUCUCAACUAGUGCGCAGGAGCACCAGGUAGAGGCAGCUGUGUGUGG: 0.277
ACAUAACUGAGUUUUUUAAAAGAGGAGAAAAUUUAUAUCUGGGUUAAGUGUUUAUCAUAUAUAUGGGUACUUUGUAAUAUCUAAAAACUUAGAAACGGAAAUGGAAUCCU: 0.823

Sample 4
Target: UBE2D1 UBC core domain (UniProt P51668)
UniProt P51668, sequence (whole entry, looked up): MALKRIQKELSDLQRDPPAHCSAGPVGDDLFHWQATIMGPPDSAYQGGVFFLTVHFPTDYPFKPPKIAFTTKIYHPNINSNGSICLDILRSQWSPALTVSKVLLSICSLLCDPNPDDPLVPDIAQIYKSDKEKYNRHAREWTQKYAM
Method: yeast two-hybrid
Sample: yeast
Notes: mostly zero background
Reference: not given
Reading: higher = stronger interaction
Measurement: lacZ reporter activity
B1: RNF7 RING domain (UniProt Q9UBF6); chain AICRVQVMDACLRCQAENKQEDCVVVWGECNHSFHNCCMSLWVKQNNRCPLCQQDWVVQRIGK
B2: ARIH1 RING domain (UniProt Q9Y4X5); chain NTRSSAQDMPCQICYLNYPNSYFTGLECGHKFCMQCWSEYLTTKIMEEGMGQTISCPAHGCDILVDDNTVM
B3: NHLRC1 RING domain (UniProt Q6VVB1); chain MREAEISLLECKVCFEKFGHRQQRRPRNLSCGHVVCLACVAALAHPRTLALECPFCRRACRGCDTSD
B4: SHPRH RING domain (UniProt Q149N8); chain KTSGGVNPEPCPICARQLGKQWAVLTCGHCFCNECISIIIEQYSVGSHRSSIKCAICRQTTSHKEISY
B5: RNF11 RING domain (UniProt Q9Y3C5); chain RDGSEKKIRECVICMMDFVYGDPIRFLPCMHIYHLDCIDDWLMRSFTCPSCMEPVDAALLSS
B6: CBLL1 RING domain (UniProt Q75N03); chain GEKDDTPVHFCDKCGLPIKIYGRMIPCKHVFCYDCAILHEKKGDKMCPGCSDPVQRIEQCT
B7: TRIM2 RING domain (UniProt Q9C040); chain VRQIDKQFLICSICLERYKNPKVLPCLHTFCERCLQNYIPAHSLTLSCPVCRQTSILPEKGV
B8: RNF17 RING domain (UniProt Q9BXT8); chain SQPWGAAEIQCTRCGRRVSRSSGHHCELQCGHAFCELCLLMTEECTTIICPDCEVATAVNTRQR
B9: RNF115 RING domain (UniProt Q9Y4L5); chain TQEQVDMGLECPVCKEDYTVEEEVRQLPCNHFFHSSCIVPWLELHDTCPVCRKSLNGEDSTR
B10: RNF32 RING domain (UniProt Q9H0A6); chain VQALRRETHECSICLAPLSAAGGQRVGAGRRSREMALLSCSHVFHHACLLALEEFSVGDRPPFHACPLCRSCYQKKILEC
B11: TRIM68 RING domain (UniProt Q6AZZ1); chain LVEAIVEEVACPICMTFLREPMSIDCGHSFCHSCLSGLWEIPGESQNWGYTCPLCRAPVQPRNLRP
B12: RNF10 RING domain (UniProt Q8N5U6); chain VRICSHEVPSCPICLYPPTAAKITRCGHIFCWACILHYLSLSEKTWSKCPICYSSVHKKDLKS
B13: RNF130 RING domain (UniProt Q86XS8); chain DKETDPDFDHCAVCIESYKQNDVVRILPCKHVFHKSCVDPWLSEHCTCPMCKLNILKALGIV
EDVLSKDAGECAICLEELQQGDTIARLPCLCIYHKGCIDEWFEVNRSCPEHPSD (ZNRF2 RING domain (UniProt Q8NHG8)): 13200
MEEMEEELKCPVCGSFYREPIILPCSHNLCQACARNILVQTPESESPQSHRAAGSGVSDY (TRIM9 RING domain (UniProt Q9C026)): 0
B1 (RNF7 RING domain): 0
AAQLLEEKLTCAICLGLYQDPVTLPCGHNFCGACIRDWWDRCGKACPECREPFPDGAELR (TRIM65 RING domain (UniProt Q6PJ69)): 0
B2 (ARIH1 RING domain): 0
B3 (NHLRC1 RING domain): 0
B4 (SHPRH RING domain): 0
B5 (RNF11 RING domain): 11000
EIKDYKARLTCPCCNMRKKDAVLTKCFHVFCFECVKTRYDTRQRKCPKCNAAFGANDFHR (RNF20 RING domain (UniProt Q5VTR2)): 0
B6 (CBLL1 RING domain): 0
B7 (TRIM2 RING domain): 0
B8 (RNF17 RING domain): 0
B9 (RNF115 RING domain): 11100
B10 (RNF32 RING domain): 0
B11 (TRIM68 RING domain): 0
PLRRLQEEKLCKICMDRHIAVVFIPCGHLVTCKQCAEAVDRCPMCSAVIDFKQRVF (BIRC8 RING domain (UniProt Q96P09)): 0
B12 (RNF10 RING domain): 0
B13 (RNF130 RING domain): 13500
GSEEEEIPFRCFICRQAFQNPVVTKCRHYFCESCALEHFRATPRCYICDQPTGGIFNPA (RNF113B RING domain (UniProt Q8IZP6)): 0

A few entries again (sample 4):
B7 (TRIM2 RING domain): 0
B9 (RNF115 RING domain): 11100
B3 (NHLRC1 RING domain): 0
B2 (ARIH1 RING domain): 0
B13 (RNF130 RING domain): 13500
B4 (SHPRH RING domain): 0
B6 (CBLL1 RING domain): 0
GSEEEEIPFRCFICRQAFQNPVVTKCRHYFCESCALEHFRATPRCYICDQPTGGIFNPA (RNF113B RING domain (UniProt Q8IZP6)): 0
EDVLSKDAGECAICLEELQQGDTIARLPCLCIYHKGCIDEWFEVNRSCPEHPSD (ZNRF2 RING domain (UniProt Q8NHG8)): 13200
B5 (RNF11 RING domain): 11000
PLRRLQEEKLCKICMDRHIAVVFIPCGHLVTCKQCAEAVDRCPMCSAVIDFKQRVF (BIRC8 RING domain (UniProt Q96P09)): 0
